Measurements from different studies.
Each line is one published result; not all experiments were run side by side. Values joined by “and” are separate records of one study, mostly repeats; a detail may differ. ± gives the spread as reported.
Sequence of UniProt Q00987 (whole entry, looked up): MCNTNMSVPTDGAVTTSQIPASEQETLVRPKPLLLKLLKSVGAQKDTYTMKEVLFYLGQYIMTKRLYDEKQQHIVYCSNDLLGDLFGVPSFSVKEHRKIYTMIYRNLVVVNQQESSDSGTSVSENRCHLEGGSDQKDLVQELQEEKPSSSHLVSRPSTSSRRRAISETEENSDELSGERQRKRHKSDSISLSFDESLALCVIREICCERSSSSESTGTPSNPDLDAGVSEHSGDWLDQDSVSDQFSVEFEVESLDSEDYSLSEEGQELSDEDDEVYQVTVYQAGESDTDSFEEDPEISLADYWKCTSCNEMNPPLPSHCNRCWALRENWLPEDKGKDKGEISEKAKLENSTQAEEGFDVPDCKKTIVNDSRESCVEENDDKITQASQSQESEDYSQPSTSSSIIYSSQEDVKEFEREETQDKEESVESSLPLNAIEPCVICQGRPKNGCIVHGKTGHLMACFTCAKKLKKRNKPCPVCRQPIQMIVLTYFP
Sequence of UniProt Q6DWJ6 (whole entry, looked up): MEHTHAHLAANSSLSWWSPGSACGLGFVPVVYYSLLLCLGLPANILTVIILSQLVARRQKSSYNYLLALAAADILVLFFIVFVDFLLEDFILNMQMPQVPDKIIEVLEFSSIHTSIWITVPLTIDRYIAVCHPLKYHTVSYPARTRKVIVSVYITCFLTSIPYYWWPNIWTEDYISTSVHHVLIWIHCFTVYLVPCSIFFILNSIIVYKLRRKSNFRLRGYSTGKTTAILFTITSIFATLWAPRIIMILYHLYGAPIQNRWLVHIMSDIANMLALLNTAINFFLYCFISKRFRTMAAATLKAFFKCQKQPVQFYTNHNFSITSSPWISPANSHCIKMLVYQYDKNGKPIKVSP
Sequence of UniProt Q007T0 (whole entry, looked up): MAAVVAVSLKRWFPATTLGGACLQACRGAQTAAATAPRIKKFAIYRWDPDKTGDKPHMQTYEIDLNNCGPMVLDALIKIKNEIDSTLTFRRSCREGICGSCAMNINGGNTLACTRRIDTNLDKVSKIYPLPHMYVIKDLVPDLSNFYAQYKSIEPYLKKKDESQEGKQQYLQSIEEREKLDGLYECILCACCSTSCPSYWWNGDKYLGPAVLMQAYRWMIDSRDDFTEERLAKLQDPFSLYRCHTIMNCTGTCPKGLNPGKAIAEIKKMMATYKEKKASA
Sequence of UniProt D0VWV4 (whole entry, looked up): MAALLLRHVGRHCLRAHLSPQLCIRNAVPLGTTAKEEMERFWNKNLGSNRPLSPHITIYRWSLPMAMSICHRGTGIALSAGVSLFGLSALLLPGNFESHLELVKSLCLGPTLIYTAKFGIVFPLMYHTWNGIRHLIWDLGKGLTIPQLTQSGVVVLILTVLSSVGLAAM
Sequence of UniProt A5GZW8 (whole entry, looked up): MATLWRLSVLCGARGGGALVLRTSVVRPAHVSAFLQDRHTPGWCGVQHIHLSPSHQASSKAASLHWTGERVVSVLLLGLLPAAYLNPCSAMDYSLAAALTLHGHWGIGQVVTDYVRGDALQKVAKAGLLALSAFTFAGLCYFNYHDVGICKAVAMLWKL
Sequence of UniProt Q9UM07 (whole entry, looked up): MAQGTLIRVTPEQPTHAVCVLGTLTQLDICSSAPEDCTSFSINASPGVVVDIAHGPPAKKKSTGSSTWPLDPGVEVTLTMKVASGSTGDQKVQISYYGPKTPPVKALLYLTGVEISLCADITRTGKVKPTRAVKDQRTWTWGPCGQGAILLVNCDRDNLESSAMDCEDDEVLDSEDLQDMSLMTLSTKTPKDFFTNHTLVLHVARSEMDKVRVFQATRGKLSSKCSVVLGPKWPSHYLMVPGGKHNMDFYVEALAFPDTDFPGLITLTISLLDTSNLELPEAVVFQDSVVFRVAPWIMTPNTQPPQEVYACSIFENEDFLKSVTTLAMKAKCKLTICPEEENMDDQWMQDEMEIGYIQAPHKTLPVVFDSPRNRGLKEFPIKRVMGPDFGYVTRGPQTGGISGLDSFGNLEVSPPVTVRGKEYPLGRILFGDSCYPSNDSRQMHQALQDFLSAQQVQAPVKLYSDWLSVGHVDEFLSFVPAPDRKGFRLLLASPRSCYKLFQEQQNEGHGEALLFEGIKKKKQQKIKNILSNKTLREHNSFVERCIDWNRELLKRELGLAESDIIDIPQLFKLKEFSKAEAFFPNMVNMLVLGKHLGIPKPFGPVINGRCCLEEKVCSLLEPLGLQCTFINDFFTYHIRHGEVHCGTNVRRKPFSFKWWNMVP
Sequence of UniProt Q8BVG4 (whole entry, looked up): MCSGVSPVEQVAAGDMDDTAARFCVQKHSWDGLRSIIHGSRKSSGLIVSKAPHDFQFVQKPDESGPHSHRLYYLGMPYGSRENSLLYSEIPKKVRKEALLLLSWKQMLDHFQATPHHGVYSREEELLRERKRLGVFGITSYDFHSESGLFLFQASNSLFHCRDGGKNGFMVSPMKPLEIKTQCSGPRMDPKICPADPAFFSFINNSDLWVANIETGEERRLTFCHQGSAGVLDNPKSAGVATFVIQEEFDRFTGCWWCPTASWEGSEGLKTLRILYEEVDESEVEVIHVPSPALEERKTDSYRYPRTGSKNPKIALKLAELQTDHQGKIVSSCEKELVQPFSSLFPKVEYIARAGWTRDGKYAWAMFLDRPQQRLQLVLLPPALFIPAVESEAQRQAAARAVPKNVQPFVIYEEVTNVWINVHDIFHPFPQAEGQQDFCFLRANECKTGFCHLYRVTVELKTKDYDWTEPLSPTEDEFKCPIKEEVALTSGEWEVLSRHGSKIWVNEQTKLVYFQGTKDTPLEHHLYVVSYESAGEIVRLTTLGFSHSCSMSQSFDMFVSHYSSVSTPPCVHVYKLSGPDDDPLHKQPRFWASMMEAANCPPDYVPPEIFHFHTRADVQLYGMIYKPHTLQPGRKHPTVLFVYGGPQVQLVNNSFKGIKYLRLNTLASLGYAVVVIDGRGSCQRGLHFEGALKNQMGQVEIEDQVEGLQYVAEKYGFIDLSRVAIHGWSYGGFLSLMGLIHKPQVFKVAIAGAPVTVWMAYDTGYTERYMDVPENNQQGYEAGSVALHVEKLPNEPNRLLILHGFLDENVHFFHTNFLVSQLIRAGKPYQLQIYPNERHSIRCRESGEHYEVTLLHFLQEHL
Sequence of UniProt P47936 (whole entry, looked up): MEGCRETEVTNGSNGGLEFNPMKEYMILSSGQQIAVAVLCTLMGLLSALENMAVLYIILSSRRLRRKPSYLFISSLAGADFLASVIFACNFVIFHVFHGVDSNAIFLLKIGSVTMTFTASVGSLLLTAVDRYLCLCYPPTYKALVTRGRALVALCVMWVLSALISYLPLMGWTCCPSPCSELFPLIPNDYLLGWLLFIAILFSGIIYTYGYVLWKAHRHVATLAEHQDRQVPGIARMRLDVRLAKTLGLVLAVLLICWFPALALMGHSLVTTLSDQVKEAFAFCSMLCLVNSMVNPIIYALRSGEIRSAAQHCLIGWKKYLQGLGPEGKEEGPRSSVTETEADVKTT
Sequence of UniProt Q13177 (whole entry, looked up): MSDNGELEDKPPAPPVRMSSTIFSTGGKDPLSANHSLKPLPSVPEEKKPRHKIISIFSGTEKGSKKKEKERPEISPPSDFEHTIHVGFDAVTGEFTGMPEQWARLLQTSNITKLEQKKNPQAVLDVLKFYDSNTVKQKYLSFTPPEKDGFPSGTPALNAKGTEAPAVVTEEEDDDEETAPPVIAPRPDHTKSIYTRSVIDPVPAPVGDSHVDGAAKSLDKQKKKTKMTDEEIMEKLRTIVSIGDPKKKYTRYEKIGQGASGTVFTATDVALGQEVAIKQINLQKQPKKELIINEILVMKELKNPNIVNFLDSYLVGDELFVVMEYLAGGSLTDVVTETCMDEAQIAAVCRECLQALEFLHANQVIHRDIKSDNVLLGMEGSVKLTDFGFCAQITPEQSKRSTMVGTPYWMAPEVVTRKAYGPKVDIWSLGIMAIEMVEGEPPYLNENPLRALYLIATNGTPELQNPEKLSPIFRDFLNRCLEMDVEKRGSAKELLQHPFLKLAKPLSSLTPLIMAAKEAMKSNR
Sequence of UniProt O43570 (whole entry, looked up): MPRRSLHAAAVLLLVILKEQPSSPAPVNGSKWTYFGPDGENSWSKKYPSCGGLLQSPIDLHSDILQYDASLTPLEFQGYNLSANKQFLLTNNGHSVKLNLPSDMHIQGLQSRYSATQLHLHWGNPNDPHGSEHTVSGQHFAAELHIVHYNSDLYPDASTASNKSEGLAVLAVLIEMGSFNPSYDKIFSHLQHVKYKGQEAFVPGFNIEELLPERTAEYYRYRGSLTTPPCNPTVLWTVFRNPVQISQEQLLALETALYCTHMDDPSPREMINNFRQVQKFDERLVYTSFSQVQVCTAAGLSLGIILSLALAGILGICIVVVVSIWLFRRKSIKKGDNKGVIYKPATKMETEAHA
Sequence of UniProt Q8VDG7 (whole entry, looked up): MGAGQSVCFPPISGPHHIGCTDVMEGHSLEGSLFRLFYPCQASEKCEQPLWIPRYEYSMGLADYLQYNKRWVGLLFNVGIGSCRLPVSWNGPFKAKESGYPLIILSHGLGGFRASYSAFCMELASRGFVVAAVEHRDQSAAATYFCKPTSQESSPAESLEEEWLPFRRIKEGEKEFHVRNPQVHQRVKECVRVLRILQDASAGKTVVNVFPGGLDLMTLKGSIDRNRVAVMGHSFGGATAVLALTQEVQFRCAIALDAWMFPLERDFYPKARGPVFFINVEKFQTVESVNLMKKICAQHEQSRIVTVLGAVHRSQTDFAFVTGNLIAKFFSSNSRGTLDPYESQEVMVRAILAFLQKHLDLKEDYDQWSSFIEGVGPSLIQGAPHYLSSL
Sequence of UniProt O43399 (whole entry, looked up): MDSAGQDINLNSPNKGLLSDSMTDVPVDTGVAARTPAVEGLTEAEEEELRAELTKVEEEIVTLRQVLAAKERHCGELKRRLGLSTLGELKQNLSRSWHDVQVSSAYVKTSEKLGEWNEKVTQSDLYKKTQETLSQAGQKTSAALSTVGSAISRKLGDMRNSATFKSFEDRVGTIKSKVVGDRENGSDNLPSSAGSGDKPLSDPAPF

| Compound | target | assay | system | conditions | how to read | measurement | value |
| --- | --- | --- | --- | --- | --- | --- | --- |
| CN(C)CCCSC(=S)N1CCN(C(=O)/C=C/c2coc3ccccc3c2=O)CC1 | Nucleoprotein (N, Tomato spotted wilt virus, UniProt P25999, R94A/Y184A) | binding, microscale thermophoresis | – | 0.9766 µM | dose series | MST response | 0.357 a.u. |
| CN(C)[C@H]1C[C@@]23CC[C@@]4(O2)C(=CC[C@]2(C)[C@@H](c5ccc6ccncc6c5)CC[C@H]24)C=C3[C@@H](O)[C@@H]1O | Serine/threonine-protein kinase PAK 2 (PAK2, Homo sapiens, UniProt Q13177) | probe labelling, inhibitor, KiNativ ATP probe MS | native lysate | 0.1 µM | – | inhibition | 10.3% |
| O=C1NC(=O)c2c1c1cc(F)c[n+]3c1c1c2c2cc(O)ccc2[n]1[Ru-4]312([N]=C=S)[S+]3CC[S+]1CC[S+]2CC3 (centres unmarked) | Homeodomain-interacting protein kinase 1 (HIPK1, Homo sapiens, UniProt Q86Z02) | enzyme activity | – | 100 nM, human enzyme, together with: 10 µM ATP | baseline: untreated | remaining activity | 35% |
| CC(=O)N[C@@H](CCC(N)=O)C(=O)N[C@@H](CC1CCCCC1)C(=O)N[C@@H](CNC(=O)CCl)C(=O)N[C@@H](CC(C)C)C(=O)N[C@@H](Cc1ccccc1)C(=O)O | Beta sliding clamp (Escherichia coli, UniProt P0A988) | binding, isothermal titration calorimetry | – | pH 7.4, 22 °C | – | -TΔS | 1.7 kcal/mol |
| CC(C)OC(=O)OCOC(=O)C(CCC(=O)O)CP(=O)(OCOC(=O)OC(C)C)OCOC(=O)OC(C)C (centres unmarked) | Glutamate carboxypeptidase 2 (Rattus norvegicus, UniProt P70627) | PET | rat, kidney | intravenous, 10 mg/kg, 30 min before tracer, together with: [68Ga]Ga-PSMA tracer | baseline: controls | reduction of tracer uptake | 69% |
| COc1ccccc1-c1n[nH]c2nc(N[C@H]3CC[C@H](NS(=O)(=O)CC(C)C)CC3)ncc12 | cdc2-related kinase 12 (Leishmania donovani, UniProt A0A3S7WQK2) | competitor, bead pull-down competition | Leishmania donovani extract | 0.016 µM | baseline: vehicle | remaining binding | 14% |
| CC(C)[C@H]1NC(=O)C[C@H]2/C=C/CCSSC[C@@H](NC1=O)C(=O)N[C@H](Cc1cccc3ccccc13)C(=O)NCC(=O)O2 | Tyrosine-protein kinase Tec (TEC, Homo sapiens, UniProt P42680) | enzyme activity, inhibitor | – | 10 µM | – | inhibition | 3.1% |
| CCOC(=O)C(CC)(CC)NC(=O)c1ccc(C2CC2)c(Cc2ccc(F)cc2)n1 | Cannabinoid receptor 2 (Cnr2, Mus musculus, UniProt P47936) | cAMP, agonist | – | – | – | Emax | 99% |
| CS(C)(=O)=Nc1ccc(-c2ccc(-c3nc4cc(O[C@@H]5CO[C@H]6[C@@H]5OC[C@H]6O)[nH]c4cc3F)cc2)cc1 | P2X receptor | binding | – | 10 µM | – | inhibition | -9% |
| CC(C)CC(O)(CC(C)C)c1cn(C(=O)N2CCCC2)nn1 | Dipeptidyl peptidase 9 (Dpp9, Mus musculus, UniProt Q8BVG4) | probe labelling, inhibitor, competitive ABPP-SILAC, refers to: Dpp9 | mouse T cells | concentration not given, 4 h, in situ, protein level | baseline: treated over DMSO, lower = more inhibition | SILAC ratio | 1.28 |
| CC[C@H](C)[C@H](NC(=O)[C@H](CCCNC(=N)N)NC(=O)[C@H](CCCNC(=N)N)NC(=O)[C@H](CC(C)C)NC(=O)[C@H](Cc1ccccc1)NC(=O)CNC(=O)CNC(=O)[C@@H](N)Cc1ccc(O)cc1)C(=O)N[C@@H](CCCNC(=N)N)C(=O)N1CCC[C@H]1C(=O)N[C@@H](CCCCN)C(=O)N[C@@H](CC(C)C)C(=O)N[C@@H](CCCCN)C(=O)O | Probable G-protein coupled receptor 139 (GPR139, Homo sapiens, UniProt Q6DWJ6) | G protein activation, agonist, BRET, refers to: Gα12 | HEK-293T/17 | 40 µM | baseline: GαoA response | Emax | 7.44% and 7.25% |
| CC(C)C[C@H](NC(=O)[C@H](CCCNC(=N)N)NC(=O)[C@H](Cc1ccccc1)NC(=O)[C@H](Cc1ccccc1)NC(=O)[C@@H](NC(=O)[C@H](CO)NC(=O)[C@H](CC(C)C)NC(=O)[C@@H](N)CO)[C@@H](C)O)C(=O)N[C@@H](Cc1ccccc1)C(=O)N[C@@H](CC(N)=O)C(=O)N[C@@H](CCCNC(=N)N)C(=O)N[C@@H](CO)C(=O)N[C@@H](Cc1ccccc1)C(=O)N[C@H](C(=O)N(C)[C@@H](CCC(N)=O)C(=O)N[C@@H](C)C(=O)O)[C@@H](C)O | Histidine kinase ComD (Streptococcus mutans serotype c, UniProt Q8DS94) | – | Streptococcus mutans | 10 µM | – | activation | 100% |
| C#CCCCCOc1ccc2c(c1)CCCN2C(=O)CCl | Tumor protein D54 (Homo sapiens, UniProt O43399) | mass spectrometry profiling, refers to: TPD52L2 | H460 cell lysate | 100 µM over 10 µM, UniProt O43399 | baseline: high over low concentration | reactivity ratio | 1.55 |
| CC[C@H](C)[C@@H]1NC(=O)[C@H](CC(C)C)NC(=O)CNC(=O)[C@H](CCCNC(=N)N)NC(=O)[C@H](Cc2c[nH]c3ccccc23)NC(=O)[C@H](CCSC)NC(=O)[C@H](CO)NC(=O)[C@H](CCC(=O)O)NC(=O)[C@H](Cc2ccccc2)NC(=O)[C@H](CC(=O)O)NC(=O)[C@H]([C@@H](C)O)NC(=O)CNC(=O)[C@H](CCC(=O)O)NC(=O)[C@H]([C@@H](C)O)NC(=O)CNC(=O)[C@H](CC(=O)O)NC1=O | E3 ubiquitin-protein ligase Mdm2 (MDM2, Homo sapiens, UniProt Q00987) | MDM2-ligand binding, inhibitor, AlphaLISA competition | – | 0.09766 µM, together with: GST-tagged MDM2 ligand | lower = stronger inhibition | AlphaLISA signal | 9140 a.u. and 9320 a.u. and 9720 a.u. |
| COc1ccc2cc1Oc1cc3c(cc1OC)CCN(C)C3Cc1ccc(cc1)Oc1c(O)c(OC)cc3c1C(C2)N(C)CC3 (centres unmarked) | Glideosome-associated protein 50 (GAP50, Plasmodium falciparum, UniProt Q8I2X3) | binding, surface plasmon resonance | – | 1:1 binding model | – | koff | 0.0145 s⁻¹ |
| N[C@H](C(=O)N1CCCC1)C1CCN(c2nccc3c(-c4ncc(Cl)cc4Cl)cccc23)CC1 | Protein-arginine deiminase type-4 (PADI4, Homo sapiens, UniProt Q9UM07) | enzyme activity | – | 0.6144 µM, high-affinity site, together with: Ca2+ 1.5 mM | – | kcat | 1.18 s⁻¹ and 1.23 s⁻¹ |
| COCC1CCCCN1C(=O)n1cc(C(O)(c2ccccc2)c2ccccc2)nn1 (centres unmarked) | Platelet-activating factor acetylhydrolase 2, cytoplasmic (Mus musculus, UniProt Q8VDG7) | probe labelling, inhibitor, competitive ABPP-SILAC | mouse T cells | concentration not given, 4 h, protein level | baseline: treated over DMSO cells, lower = stronger inhibition | SILAC activity ratio | 1.27 |
| CON(C(=O)c1cn(C)nc1C(F)F)C(C)Cc1c(Cl)cc(Cl)cc1Cl (centres unmarked) | SDHD/SDHC/SDHB (Sus scrofa, UniProt A5GZW8+D0VWV4+Q007T0) | enzyme activity, inhibitor, DCIP reduction | pig | 0.3 µM, together with: DCIP 160 µM | – | reaction velocity | 0.0172 µM/s and 0.0165 µM/s |
| CCOC(=O)[C@@H]1Cc2c(cc([N+](=O)[O-])cc2[N+](=O)[O-])[C@H](O)[C@]12C(=O)Nc1ccc(Br)cc12 | Serine/threonine-protein kinase DCLK1 (DCLK1, Homo sapiens, UniProt O15075) | KINOMEscan | – | 100 nM | baseline: DMSO control | remaining binding | 46% |
| C[C@]1(COC(=O)Cc2ccc(O)c(O)c2)[C@H](C(=O)O)N2C(=O)/C(=C/c3ccccn3)[C@H]2S1(=O)=O | Beta-lactamase (blaOXA-33, Acinetobacter baumannii, UniProt Q8RLA6) | – | – | – | – | Ki (inactivation) | 240 ± 50 nM |
| Cc1cc(=O)oc2cc(OCCCCCC[Se]C#N)ccc12 | Carbonic anhydrase 12 (CA12, Homo sapiens, UniProt O43570) | stopped-flow CO2 hydration | – | – | baseline: Ki CA II over Ki CA XII | selectivity ratio | > 1290 |
| C[C@H](NCc1ccc(-c2ccc(C(F)(F)F)cc2)cc1)C(N)=O | B2 bradykinin receptor (BDKRB2, Homo sapiens, UniProt P30411) | radioligand binding, SafetyScreen panel | – | 1 µM, species human, together with: 0.50 nM [3H]Bradykinin | – | inhibition | -2% |
| CC[C@H](C)[C@H](NC(=O)[C@H](CO)NC(=O)[C@H](CO)NC(=O)[C@H](CCC(=O)O)NC(=O)[C@H](CCC(=O)O)NC(=O)[C@H](CCCCN)NC(=O)[C@H](CO)NC(=O)[C@@H](NC(=O)[C@H](CO)NC(=O)[C@H](CC(C)C)NC(=O)[C@H](Cc1ccccc1)NC(=O)[C@H](CCCNC(=N)N)NC(=O)[C@H](C)NC(=O)[C@H](Cc1ccccc1)NC(=O)[C@H](Cc1ccccc1)NC(=O)[C@@H]1CCCN1C(=O)[C@H](CC(C)C)NC(=O)[C@H](C)NC(=O)[C@H](CCCCN)NC(=O)CNC(=O)[C@H](CCC(N)=O)NC(=O)[C@H](CCC(N)=O)NC(=O)[C@H](CC(=O)O)NC(=O)[C@H](CC(N)=O)NC(=O)[C@@H]1CCCN1C(=O)[C@H](Cc1ccc(O)cc1)NC(=O)[C@H](C)NC(=O)[C@@H](N)CCSC)C(C)C)C(=O)N[C@@H](CCCCN)C(=O)N[C@@H](CO)C(=O)N1CCC[C@H]1C(=O)N[C@@H](CO)C(=O)N1CCC[C@H]1C(=O)N[C@@H](CC(=O)O)C(=O)N[C@@H](Cc1c[nH]cn1)C(=O)N[C@@H](CCC(=O)O)C(=O)N[C@H](C(=O)N[C@@H](CO)C(=O)N[C@H](C(=O)N[C@@H](CCCNC(=N)N)C(=O)N[C@@H](CCCCN)C(=O)N[C@@H](Cc1ccc(O)cc1)C(=O)N1CCC[C@H]1C(=O)N[C@@H](CO)C(=O)N[C@@H](CC(=O)O)C(=O)N[C@@H](Cc1c[nH]c2ccccc12)C(=O)N[C@@H](CCC(=O)O)C(=O)N[C@@H](CCC(=O)O)C(=O)N[C@@H](Cc1c[nH]c2ccccc12)C(=O)O)[C@@H](C)O)[C@@H](C)CC | uncharacterized protein (Microcystis aeruginosa MRC, UniProt B2G3D0, D281A) | ITC | Microcystis aeruginosa | concentration not given, pH 8.0, 25 °C | – | binding stoichiometry | 0.71 ± 0.01 |

For quick reference, copied from above:
| Compound | target | assay | system | conditions | how to read | measurement | value |
| --- | --- | --- | --- | --- | --- | --- | --- |
| CS(C)(=O)=Nc1ccc(-c2ccc(-c3nc4cc(O[C@@H]5CO[C@H]6[C@@H]5OC[C@H]6O)[nH]c4cc3F)cc2)cc1 | P2X receptor | binding | – | 10 µM | – | inhibition | -9% |
| CC[C@H](C)[C@H](NC(=O)[C@H](CCCNC(=N)N)NC(=O)[C@H](CCCNC(=N)N)NC(=O)[C@H](CC(C)C)NC(=O)[C@H](Cc1ccccc1)NC(=O)CNC(=O)CNC(=O)[C@@H](N)Cc1ccc(O)cc1)C(=O)N[C@@H](CCCNC(=N)N)C(=O)N1CCC[C@H]1C(=O)N[C@@H](CCCCN)C(=O)N[C@@H](CC(C)C)C(=O)N[C@@H](CCCCN)C(=O)O | Probable G-protein coupled receptor 139 (GPR139, Homo sapiens, UniProt Q6DWJ6) | G protein activation, agonist, BRET, refers to: Gα12 | HEK-293T/17 | 40 µM | baseline: GαoA response | Emax | 7.44% and 7.25% |
| COc1ccccc1-c1n[nH]c2nc(N[C@H]3CC[C@H](NS(=O)(=O)CC(C)C)CC3)ncc12 | cdc2-related kinase 12 (Leishmania donovani, UniProt A0A3S7WQK2) | competitor, bead pull-down competition | Leishmania donovani extract | 0.016 µM | baseline: vehicle | remaining binding | 14% |
